Results pooled from the literature.
Every numbered part comes from another study and shows a few of its results, in no order. Changes are numbered by the printed parent chain.

Series 1 — method: protein-binding microarray; form: double-stranded DNA, one strand shown; sample: in vitro; concentration: not given; reading: higher = stronger binding
Target: TATA-box-binding protein 1 (TBP1, Arabidopsis thaliana, UniProt P28147, residues 1-200, full length assumed)
Setting: k-mer, scored over probes, only values ≥0.25
Target sequence (chain): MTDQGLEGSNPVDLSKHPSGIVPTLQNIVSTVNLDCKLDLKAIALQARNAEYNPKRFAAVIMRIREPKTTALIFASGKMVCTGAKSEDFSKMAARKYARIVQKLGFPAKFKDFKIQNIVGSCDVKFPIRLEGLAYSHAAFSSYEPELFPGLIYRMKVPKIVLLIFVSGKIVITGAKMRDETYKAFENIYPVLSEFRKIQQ
Sequence	E-score
AGGTATA	0.378
AAATACT	0.292
AAATATC	0.275
GAATAAA	0.395
AGCATAT	0.348
AAAGTCA	0.266
TCATTAA	0.284
GTTTTAA	0.374
ATATCGA	0.275
CATTTTA	0.344
CTATATC	0.316
GAAATTA	0.316
AGGATAT	0.273
TATAGCA	0.257
AAACTTA	0.268
ACATAAA	0.273
ATATGAG	0.3
CTTTTAA	0.426
AGTTTAT	0.351

Series 2 — method: DNA-protein interaction ELISA; form: double-stranded DNA, one strand shown; sample: in vitro, bacterial lysate; concentration: not given; setting: whole dsDNA probe, crude lysate protein; reference: highest signal in screen; reading: higher = stronger binding
Target: Probable WRKY transcription factor 50, DNA-binding domain (WRKY50, Arabidopsis thaliana, UniProt Q8VWQ5, residues 99-173)
Target sequence (chain): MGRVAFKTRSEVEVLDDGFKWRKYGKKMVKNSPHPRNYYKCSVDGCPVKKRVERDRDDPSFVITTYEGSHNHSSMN
Sequence	relative absorbance
AAAAAAGGGAGTCATGCTTCTTGTTTAAAA	63.4 % of maximum
AAAAAAATTGTATCATACTTCAGTTGAAAA	10.6 % of maximum
AAAAAAGGCGGTCGTAGTTGTGGGAGAAAA	18.4 % of maximum
AAAAAAGACCGCAGCAAGAATTAAATAAAA	43.4 % of maximum
AAAAAAGCGTAAGCCTTGACAGTCGTAAAA	39 % of maximum
AAAAAACTGCTTGCCCCTGTCTCCATAAAA	32.8 % of maximum
AAAAAATATGTAGCTGCCGTTACGCTAAAA	25.7 % of maximum
AAAAAACTGGTGTATCTCCTCAATTAAAAA	24.8 % of maximum
AAAAAACGCTTTCAGTTTTGATCTTAAAAA	10.3 % of maximum
AAAAAATACTGGCTGTCTCGTTCACAAAAA	11.3 % of maximum
AAAAAATATCCTATTCTAATTTATATAAAA	32.1 % of maximum
AAAAAATTGGTTCTCATTTCTACTTCAAAA	26.2 % of maximum
AAAAAATGGAAAGACCTATACCGGTCAAAA	33.8 % of maximum
AAAAAATTCTTTTTTCTTCAAGGTCTAAAA	46 % of maximum
AAAAAATCGGTACGCACCCCGGACTCAAAA	19.4 % of maximum
AAAAAAGCCGTGGGTGATGGTCACAGAAAA	10.5 % of maximum

Series 3 — method: RNA Bind-n-Seq; form: RNA; sample: in vitro; concentration: 365 nM; reference: no-protein control; reading: higher = stronger binding
Target: RNA binding protein fox-1 homolog 2, RRM domain, GST-SBP tag (RBFOX2, Homo sapiens, UniProt O43251-10, residues 100-194)
Setting: natural RNA segment, single round, ends assumed
Constant ends, left off below: GGGAGUUCUACAGUCCGACGAUC … UGGAAUUCUCGGGUGCCAA
Residues (chain): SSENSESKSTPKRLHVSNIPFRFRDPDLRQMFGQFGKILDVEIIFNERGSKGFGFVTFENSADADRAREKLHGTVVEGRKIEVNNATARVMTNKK
Sequence	RBNS enrichment (R)
GCAUGGGCGACCCAUUACAGUAUGAGAUAAGAUUGAGUUCUGAUGCGUUAAACGGAGGUGGCAGAAAUUUGUCAAGAAGGCCUUAUCCAUUUCGAUUGUGUGACAGAUUG	0.527
GUCUUUAUGGAAGGCACUUGUUACAGUAUUUGCCCAUUGUACAGAGCAAUGCUACAUUGUUGUAAAAAGAAUUGCUAUUGUAAAAAAGCACUGUGUGACUUUGUGAAGGA	0.536
UCCACCACAAGAUGGAGAUGGUCAGCACAAACCGAUUCUGUUCCUCUUUAAAGUGUAUAUUAGCCACUUAGCAAUCUCUAUAUUCUUUCAAGUAACCAAGCUGUUGACUU	0.31
AAAAAAAAAAGUGUAAUUAGAAAUGGAAAUCUAGGUAAAGGAAGCUUUAAAAUGUUGUAUUUUUUCCCUGAAAUAAACUUUUAUGAUUUAAUGUCUUGGAAAAAGACUCA	1.23
UUGGGAAAGGAAAGCCCAGAUUUGAAUGGGUCUUUCCCCUGGGCCUUAUCCUAUAGAGGCAUUUGUAAUAUGGAGAAAAUAAUUUUUCAUUUUUGCUCAUUUAAUUCUAU	0.35
AAGAGUCUACCUUUCCAAGUUCUCACUGCUGGAAAGAGCUAGAAGCACAGUUCAAAGUUCUGGCUUCUGGACUCUGCAGUCCAGGUCUCCCUUCUCCCACUUGCCUACCC	0.277
AUAUAAACUUGGAAAGGCAUUUAGCCUUGAUUUGUUAAAUCCUAAGGAUUUCCUGUAAGGUUUUUUGCAACCUAUUUAGUUUUUGUCAUUUAAAAUGCCUAACUUCUUAG	0.522
GCCCCAGUAUGGAAGAAAGACUUAACCUGUGGGAAAAACAAUUAUCUUUUUAAAUAGAGAGCUAUGUAUUUUUCAUGUAAUCUGUGAUUUCAAGAAGAUGAUUGGAGUAU	0.423
AUGUGAACGUUGAGUACACAUGAGUGCGUGUAUGCCCCCAGGCUGGGUCAGCUCUUCUGUGGAUUGCAUGGCGUGUGAUUAAAAGCCCAUGUGUUCCCACACAUCCACAU	0.515
UUAUGGAUUUGUGACUUUGGCAUGCAGAAGACAAGAGAGUGGUUAAGUGGAUCUUAUCAUUACUGUGAGUGUGAGACACACACACAUACACAACACACUGUAUGUGCAUA	0.545
AGAGGUCCAAGAACAUGUAUUAUCCAGACUAAAAAAAUGAUUUUUUGUUGUUAUGGUUUACGUGAUGAAAAGGAGAAAAAACAGAAUCAUACCUGGGUGGAGAGAGGGAG	0.765
CGUAUGUAAUAUAGAGACUCCUGGGAUGUUUGGCCAUAUGUUACCGCUUUUGGAAGAAAGUCCAGGGACCCAGAAAAGGGAGGGGGAAGAUACCCAUUUCACCCCAGCGU	0.381

Series 4 — target: JDP2, bZIP domain (human); method: DHFR protein complementation; sample: yeast; reference: wild-type JUN-FOS pair; reading: higher = stronger binding
Setting: single substitutions, most at no-binding floor
Parent: JUN, bZIP domain (human); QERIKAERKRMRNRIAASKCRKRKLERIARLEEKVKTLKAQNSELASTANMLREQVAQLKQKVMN; partner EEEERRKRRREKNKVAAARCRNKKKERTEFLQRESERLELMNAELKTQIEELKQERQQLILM
Substitution	binding fitness [natural log]
E44S	0.213
K34P	-0.66
E32R	0.264
R53I	0.196
A29Q	0.222
M51Q	0.292
E44H	0.244
Q41H	0.198
E54W	0.0345
K34C	0.266
K36A	0.347
T48D	0.271
K39F	0.199
N42Q	0.246
I28L	0.309
E44D	0.154
K34Y	0.286
E44V	0.239

Series 5 — method: competition protein-binding microarray; form: double-stranded DNA, one strand shown; sample: in vitro; concentration: 2 µM; added: Pho4 competitor, 0.05 µM; reading: higher = stronger binding; constant ends, left off below: … GTCTTGATTCGCTTGACGCTGCTG
Target: Centromere-binding protein 1, full length, His-tagged (CBF1, Saccharomyces cerevisiae, UniProt P17106, residues 1-351)
Sequence of UniProt P17106 (whole entry, looked up): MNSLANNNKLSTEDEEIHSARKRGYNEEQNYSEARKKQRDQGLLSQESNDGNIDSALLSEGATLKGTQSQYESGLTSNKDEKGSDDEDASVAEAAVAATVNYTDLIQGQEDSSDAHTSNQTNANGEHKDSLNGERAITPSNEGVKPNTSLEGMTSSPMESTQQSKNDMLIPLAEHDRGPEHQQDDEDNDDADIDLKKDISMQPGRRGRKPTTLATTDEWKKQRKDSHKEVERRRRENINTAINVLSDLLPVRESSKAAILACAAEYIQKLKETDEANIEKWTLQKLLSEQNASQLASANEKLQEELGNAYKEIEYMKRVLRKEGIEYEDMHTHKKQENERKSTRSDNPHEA
Setting: whole 60-bp probe, lowest competitor level
Sequence	fluorescence intensity [a.u.]
CTTTCCCGATCTTGTATCGTGGGTGTAGCACATTTG	72.8
CGAAGGACGTCGCTACACGTGAAAATTCTCCACCAA	593
TGCGCAACAACTTGTCTAGTGGGTGTATGTCTAGAA	68.2
CCATAGGTTCACATCCATGTGCACTGGTGCTGCGTT	85.2
CAACAAGCCTGTTACACCATGACAACAGATCCTTCT	76.1
CACTAAATTTGGAAGCTCGTGTACTCATAAACAATT	111
ATCTGGCATCTTCACCACGTTATTTCTGCTGGTGAA	100
ATAACGTTGCTTTTGCACGTGTAGTTCGCTGCTTAG	774
AAAGCGGTAATTTGAGCAGTGGGTGCAGATATCTAT	65.7
CTTGTTATTTACGGCCACGGGGACACTATTATGGTT	512
CAGAAGCCAAATTGGCGCGTGAGTCTGAGCTGCCTT	68.2
CGTCCTAGCGATTGATTGGTGGGTGCCATGAGGAAG	65.4
TGCGCAACAACTTGGCACGTGTTTTTATGTCTAGAA	3430
AAATTACTAAGTTGTCCTGTGGGTGACGCCGTATGA	69.6
AAATTACTAAGTTGTCACCAGACTTACCCCGTATGA	101
CGGGGTTAAGTTTGTTACGTGGGTGGCTTGCAGCAG	67.5
GTATAATCTCTGAGGTGCGTGGTGAGGGACTGCTTA	65.7
ATACAGCCCACTGCACACATGGTGATAAAGAGAATT	95.9
TGCGCAACAACTTGTCGCGTGGGTGTATGTCTAGAA	88.4
CTTTCCCGATCTTGTCACAGAACTTTAGCACATTTG	86.6
CGTCCTAGTGATTCTCACGTGTTTTCCATGAGGAAG	1300
CTTCTGTAAATTTGTCACAGGACTTGACGCGCCCCG	105

Series 6 — method: protein binding microarray; form: double-stranded DNA, one strand shown; sample: in vitro; concentration: not given; reference: not given; reading: higher = stronger binding
Target: Histone acetyltransferase KAT6A, winged helix 1, GST fusion (KAT6A, Homo sapiens, UniProt Q92794, residues 1-85)
Setting: 8-mer, flanks averaged, mean of 2 arrays, mostly near background
Residues (chain): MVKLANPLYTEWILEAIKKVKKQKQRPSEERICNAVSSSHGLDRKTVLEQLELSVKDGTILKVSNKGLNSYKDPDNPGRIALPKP
Sequence	E-score
CATGGGTC	-0.284
AGAGTGTC	-0.0977
ACAGAGCT	-0.0927
ATCAAGAA	-0.168
TACGAGTA	-0.0271
CTGACAAA	-0.194
CAGTTGGC	-0.0695
AGATGCTA	-0.0529
TAAACTCA	-0.127
ACTGTTCA	-0.0103
CAAAGTAG	-0.256
GGTATCAC	-0.0474
AAAGGGAG	-0.123
ACTGCGCA	0.281
CGTAAAAA	-0.0337
CGGTACTC	0.173
GCTACCAA	0.0501

Excerpt of the above (series 6):
Sequence	E-score
CTGACAAA	-0.194
CAGTTGGC	-0.0695
AGATGCTA	-0.0529
TAAACTCA	-0.127
ACTGTTCA	-0.0103
CAAAGTAG	-0.256
GGTATCAC	-0.0474
AAAGGGAG	-0.123
ACTGCGCA	0.281
CGTAAAAA	-0.0337
CGGTACTC	0.173
GCTACCAA	0.0501
